Results from different studies.
Numbers after ± are the reported error.

The Cmax ratio of `COC[C@@H](CC(C)C)NC(=O)c1ccc(C)c(C)c1` is reported as 1.94 (Sprague-Dawley rats, plasma; oral, 100 mg/kg; baseline: female over male).
`CSc1ccccc1C(=O)NCCn1cc(C(=O)NCc2cccc(C)n2)c(=O)c2cc3c(cc21)OC(F)(F)O3` gave a Cmax of 5.08 ± 2.24 ng/mL (Sprague-Dawley rat, male, whole blood; intramuscular, 10 mg/kg of parent drug).
With `C=CC(=O)N1CCC(Oc2cc3c(Nc4ccc(Cl)c(Cl)c4F)ncnc3cc2OC)CC1` the Cmax ratio was 1.59 fold (Sprague-Dawley rat male, plasma; oral, 2 mg/kg, added: schisandrin B 20 mg/kg daily 1 weeks pretreatment; baseline: no pretreatment).
`Cc1nc2cccc(OCC(C)(C)C(=O)NC(C)C)c2c(N)c1C(=O)O` — result for “Cmax ratio female over male”: 0.69 ± 0.34 (Sprague-Dawley rat, plasma; oral, 30 mg/kg, day 1; baseline: female over male).
`CCCC(CCC)NC(=O)c1ccc2c(c1)OCO2` gave a Cmax ratio of 0.85 (rat Sprague-Dawley, plasma; intravenous, 1 mg/kg; baseline: female over male).
`Cc1cccc(CNC(=O)c2cn(CCNC(=O)c3ccccc3S)c3cc4c(cc3c2=O)OC(F)(F)O4)n1` gave a Cmax of 326 ± 90.6 ng/mL (Sprague-Dawley rat, male, whole blood; intramuscular, 3 mg/kg of parent drug).
For `COc1cc([C@H]2OC[C@H]3[C@@H]2CO[C@@H]3c2ccc(O[C@@H]3O[C@H](CO)[C@@H](O)[C@H](O)[C@H]3O)c(OC)c2)ccc1O[C@@H]1O[C@H](CO)[C@@H](O)[C@H](O)[C@H]1O`, the Cmax decrease was 40.1 ± 21.7 ng/mL (rat, plasma; oral, dose not given, dosed as combined Eu and Pc extracts; baseline: single extracts).
For `Cc1cc(C(=O)NC(C)(C)COc2cccc3c2C(N)=NS(=O)(=O)N3)cc(C)n1.O=S(=O)(O)O`, the Cmax ratio was 1.76 (Sprague-Dawley rat, plasma; oral, 100 mg/kg, vehicle 1% methylcellulose; baseline: female over male).
The Cmax of `CN1CCC[C@H](CN2c3ccccc3Sc3ccccc32)C1.Cl` is reported as 6600 ng/g (female Wistar rat, brain; oral, 16 mg/kg).
For `C=CC(=O)N1CCC[C@@H](n2nc(-c3ccc(Oc4ccccc4)cc3)c3c(N)ncnc32)C1`, the Cmax was 319 ± 97.9 ng/g (male Wistar rat, kidney; oral, 50 mg/kg).
The Cmax of `Cc1cccc(CNC(=O)c2cn(CCNC(=O)c3ccccc3Sc3c([N+](=O)[O-])ncn3C)c3cc4c(cc3c2=O)OC(F)(F)O4)n1` is reported as 39.3 ± 12.2 ng/mL (Sprague-Dawley rat, male, plasma; intramuscular, 10 mg/kg of parent drug).
For `Cn1c(C(F)(F)F)cc(=O)n(-c2cc(Oc3cccnc3OCC(=O)O)c(Cl)cc2F)c1=O`, the Cmax was 1260 ng/mL (Crl:CD(SD) rats, male, plasma; oral diet, 800 ppm in diet, day 1, 90-day toxicity study).

A few entries again:
The Cmax of `Cc1cccc(CNC(=O)c2cn(CCNC(=O)c3ccccc3Sc3c([N+](=O)[O-])ncn3C)c3cc4c(cc3c2=O)OC(F)(F)O4)n1` is reported as 39.3 ± 12.2 ng/mL (Sprague-Dawley rat, male, plasma; intramuscular, 10 mg/kg of parent drug).
